Assay results gathered from unrelated publications.
Each numbered part is a random draw from the data of one study; scales do not carry over between parts.

Study 1
Target: Centromere-binding protein 1, full length, His-tagged (CBF1, Saccharomyces cerevisiae, UniProt P17106, residues 1-351)
Chain of UniProt P17106 (whole entry, looked up): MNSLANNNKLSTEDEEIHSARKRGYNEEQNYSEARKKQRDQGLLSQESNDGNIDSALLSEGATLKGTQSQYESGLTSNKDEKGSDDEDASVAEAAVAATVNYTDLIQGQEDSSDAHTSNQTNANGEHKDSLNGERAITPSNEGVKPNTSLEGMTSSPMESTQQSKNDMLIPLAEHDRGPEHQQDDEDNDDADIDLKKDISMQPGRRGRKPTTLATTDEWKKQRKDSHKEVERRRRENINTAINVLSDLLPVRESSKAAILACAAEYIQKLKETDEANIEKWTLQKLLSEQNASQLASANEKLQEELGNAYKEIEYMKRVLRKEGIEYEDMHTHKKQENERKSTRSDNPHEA
Technique: competition protein-binding microarray
Form: double-stranded DNA, one strand shown
Matrix: in vitro
Concentration: 2 µM
Notes: whole 60-bp probe, lowest competitor level
With: Pho4 competitor, 0.05 µM
Reading: higher = stronger binding
All sequences stand within: … GTCTTGATTCGCTTGACGCTGCTG
`TGGATACATTGAAGCTGCGTGACGGATTGGCCTCGG` gave a fluorescence intensity of 87.7 a.u.
`GGCGTCGTACAAGAGAACGTGGGTACTTTTTAGGCT` has a fluorescence intensity of 90.2 a.u.
`TAACCCAGTTGTAACCAGATGGAGTCATTCTACCGG` has a fluorescence intensity of 61.7 a.u.
The fluorescence intensity of `AAGGGCCAATTCGGCCATGTGTGAGTAAGATCGCAA` is reported as 86.8 a.u.
With `CTTTCCCGATCTTGCCGTGTGGGTGTAGCACATTTG` the fluorescence intensity was 80.9 a.u.

Study 2
Target: Histone acetyltransferase KAT6A, winged helix 1, GST fusion (KAT6A, Homo sapiens, UniProt Q92794, residues 1-85)
Technique: protein binding microarray
Form: double-stranded DNA, one strand shown
Matrix: in vitro
Concentration: not given
Notes: 8-mer, flanks averaged, mean of 2 arrays, mostly near background
Relative to: not given
Reading: higher = stronger binding
Target sequence (chain): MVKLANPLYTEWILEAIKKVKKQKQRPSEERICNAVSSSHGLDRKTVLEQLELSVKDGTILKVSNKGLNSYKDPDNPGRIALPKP
With `GGTAGGAC` the E-score was 0.0179.
The E-score of `CGTCAACC` is reported as 0.065.
The E-score of `GGAAGGGA` is reported as -0.0253.
The E-score of `CCCTATTA` is reported as -0.15.
For `AAGGGGCA`, the E-score was -0.107.

Study 3
Target: Sal-like protein 4, full length isoform A (SALL4, Homo sapiens, UniProt Q9UJQ4, residues 1-1053)
Chain of UniProt Q9UJQ4 (whole entry, looked up): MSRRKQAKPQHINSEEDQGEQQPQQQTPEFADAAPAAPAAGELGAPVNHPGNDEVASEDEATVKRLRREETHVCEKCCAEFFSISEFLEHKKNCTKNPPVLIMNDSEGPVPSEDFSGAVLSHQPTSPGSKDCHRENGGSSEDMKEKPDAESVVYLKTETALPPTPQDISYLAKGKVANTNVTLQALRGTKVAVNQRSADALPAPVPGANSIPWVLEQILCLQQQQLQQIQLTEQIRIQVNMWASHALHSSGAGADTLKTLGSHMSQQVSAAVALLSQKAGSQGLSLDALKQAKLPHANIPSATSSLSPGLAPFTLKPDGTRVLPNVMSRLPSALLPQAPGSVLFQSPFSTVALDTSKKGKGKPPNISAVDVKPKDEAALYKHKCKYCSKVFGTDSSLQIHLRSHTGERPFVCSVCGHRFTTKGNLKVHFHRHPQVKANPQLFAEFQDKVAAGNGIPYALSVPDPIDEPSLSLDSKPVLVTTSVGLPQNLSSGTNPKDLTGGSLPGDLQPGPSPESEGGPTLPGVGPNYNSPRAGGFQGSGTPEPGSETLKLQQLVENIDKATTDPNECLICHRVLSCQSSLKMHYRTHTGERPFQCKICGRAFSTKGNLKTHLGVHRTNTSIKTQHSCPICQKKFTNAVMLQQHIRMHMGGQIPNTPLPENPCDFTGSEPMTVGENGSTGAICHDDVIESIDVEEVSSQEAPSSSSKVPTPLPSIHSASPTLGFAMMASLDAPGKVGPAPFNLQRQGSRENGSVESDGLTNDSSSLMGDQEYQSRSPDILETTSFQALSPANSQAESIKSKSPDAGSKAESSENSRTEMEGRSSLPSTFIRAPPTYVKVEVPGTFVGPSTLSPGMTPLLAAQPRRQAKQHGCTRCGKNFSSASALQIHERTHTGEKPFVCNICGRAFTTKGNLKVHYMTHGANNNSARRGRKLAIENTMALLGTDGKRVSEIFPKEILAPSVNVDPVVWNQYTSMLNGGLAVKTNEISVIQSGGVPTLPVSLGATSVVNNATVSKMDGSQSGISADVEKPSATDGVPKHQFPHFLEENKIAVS
Technique: universal PBM
Form: double-stranded DNA, one strand shown
Matrix: in vitro
Concentration: 600 nM
Notes: 8-mer, flanks averaged, mean of replicates
Reading: higher = stronger binding
`CCAAGGTC` gave an E-score of -0.192.
For `AATCACGG`, the E-score was 0.171.
`AATGAGTC` has an E-score of 0.133.
With `CAGCTTGG` the E-score was -0.151.

Further values, each from its own experiment
With `PhoQ, residues 284 288 289 292 302 303 ALAMYF` the fold induction was 3.45 (PhoP, residues 12 14 15 18 19 NFCKL (Escherichia coli, UniProt P23836); Sort-seq, measured: YFP reporter; E. coli; PhoQ-PhoP variant library, with: 10 µM Mg2+; relative to: high Mg2+ state, higher = stronger signaling).

Excerpt of the above (study 1):
`TGGATACATTGAAGCTGCGTGACGGATTGGCCTCGG` gave a fluorescence intensity of 87.7 a.u.
